Results gathered from unrelated publications.
Numbered parts are unrelated; each lists some results of a single study.
UniProt Q9UK32, sequence (whole entry, looked up): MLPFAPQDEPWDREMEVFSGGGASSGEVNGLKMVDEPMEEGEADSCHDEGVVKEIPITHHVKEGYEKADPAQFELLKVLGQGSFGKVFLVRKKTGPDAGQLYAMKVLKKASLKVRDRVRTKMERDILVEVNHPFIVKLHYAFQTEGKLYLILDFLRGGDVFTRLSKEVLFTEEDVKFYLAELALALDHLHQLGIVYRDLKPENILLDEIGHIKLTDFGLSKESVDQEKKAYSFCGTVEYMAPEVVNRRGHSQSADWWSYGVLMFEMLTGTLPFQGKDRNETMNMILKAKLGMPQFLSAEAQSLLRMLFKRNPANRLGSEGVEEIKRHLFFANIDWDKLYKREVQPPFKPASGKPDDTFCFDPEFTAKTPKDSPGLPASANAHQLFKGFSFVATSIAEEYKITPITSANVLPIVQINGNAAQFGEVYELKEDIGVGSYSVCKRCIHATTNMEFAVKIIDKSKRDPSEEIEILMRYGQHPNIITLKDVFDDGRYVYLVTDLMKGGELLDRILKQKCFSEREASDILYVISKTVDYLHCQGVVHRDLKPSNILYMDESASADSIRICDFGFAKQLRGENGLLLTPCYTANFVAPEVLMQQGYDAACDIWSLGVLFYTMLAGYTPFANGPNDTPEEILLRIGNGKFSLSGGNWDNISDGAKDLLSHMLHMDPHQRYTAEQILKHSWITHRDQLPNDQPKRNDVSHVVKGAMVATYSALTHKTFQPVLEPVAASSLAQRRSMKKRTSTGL
UniProt P54760, sequence (whole entry, looked up): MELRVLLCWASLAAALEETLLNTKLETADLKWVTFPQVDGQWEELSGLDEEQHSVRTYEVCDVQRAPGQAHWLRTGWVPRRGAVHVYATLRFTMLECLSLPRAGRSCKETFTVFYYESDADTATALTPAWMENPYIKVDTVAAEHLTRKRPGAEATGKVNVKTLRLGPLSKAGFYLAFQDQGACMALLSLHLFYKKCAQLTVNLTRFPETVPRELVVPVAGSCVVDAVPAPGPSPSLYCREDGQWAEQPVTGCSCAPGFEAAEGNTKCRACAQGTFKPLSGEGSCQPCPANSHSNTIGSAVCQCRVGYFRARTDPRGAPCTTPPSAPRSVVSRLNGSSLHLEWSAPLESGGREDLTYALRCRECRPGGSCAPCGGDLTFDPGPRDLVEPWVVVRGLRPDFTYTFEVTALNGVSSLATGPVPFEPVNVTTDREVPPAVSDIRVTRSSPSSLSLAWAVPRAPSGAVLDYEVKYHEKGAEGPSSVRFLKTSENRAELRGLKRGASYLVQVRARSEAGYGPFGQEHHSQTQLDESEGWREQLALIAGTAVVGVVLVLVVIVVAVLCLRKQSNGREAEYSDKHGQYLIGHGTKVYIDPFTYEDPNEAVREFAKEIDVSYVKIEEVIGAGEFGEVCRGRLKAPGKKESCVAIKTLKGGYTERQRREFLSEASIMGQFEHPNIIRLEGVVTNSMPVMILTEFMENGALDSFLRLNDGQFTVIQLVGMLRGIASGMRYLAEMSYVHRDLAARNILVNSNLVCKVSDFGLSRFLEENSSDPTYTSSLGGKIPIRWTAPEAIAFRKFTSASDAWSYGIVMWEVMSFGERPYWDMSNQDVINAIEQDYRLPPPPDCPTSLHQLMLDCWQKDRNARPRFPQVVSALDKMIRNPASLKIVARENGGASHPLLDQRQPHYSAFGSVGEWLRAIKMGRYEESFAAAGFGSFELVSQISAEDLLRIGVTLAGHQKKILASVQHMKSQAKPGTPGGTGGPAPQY
UniProt P42336, sequence (whole entry, unmodified, looked up): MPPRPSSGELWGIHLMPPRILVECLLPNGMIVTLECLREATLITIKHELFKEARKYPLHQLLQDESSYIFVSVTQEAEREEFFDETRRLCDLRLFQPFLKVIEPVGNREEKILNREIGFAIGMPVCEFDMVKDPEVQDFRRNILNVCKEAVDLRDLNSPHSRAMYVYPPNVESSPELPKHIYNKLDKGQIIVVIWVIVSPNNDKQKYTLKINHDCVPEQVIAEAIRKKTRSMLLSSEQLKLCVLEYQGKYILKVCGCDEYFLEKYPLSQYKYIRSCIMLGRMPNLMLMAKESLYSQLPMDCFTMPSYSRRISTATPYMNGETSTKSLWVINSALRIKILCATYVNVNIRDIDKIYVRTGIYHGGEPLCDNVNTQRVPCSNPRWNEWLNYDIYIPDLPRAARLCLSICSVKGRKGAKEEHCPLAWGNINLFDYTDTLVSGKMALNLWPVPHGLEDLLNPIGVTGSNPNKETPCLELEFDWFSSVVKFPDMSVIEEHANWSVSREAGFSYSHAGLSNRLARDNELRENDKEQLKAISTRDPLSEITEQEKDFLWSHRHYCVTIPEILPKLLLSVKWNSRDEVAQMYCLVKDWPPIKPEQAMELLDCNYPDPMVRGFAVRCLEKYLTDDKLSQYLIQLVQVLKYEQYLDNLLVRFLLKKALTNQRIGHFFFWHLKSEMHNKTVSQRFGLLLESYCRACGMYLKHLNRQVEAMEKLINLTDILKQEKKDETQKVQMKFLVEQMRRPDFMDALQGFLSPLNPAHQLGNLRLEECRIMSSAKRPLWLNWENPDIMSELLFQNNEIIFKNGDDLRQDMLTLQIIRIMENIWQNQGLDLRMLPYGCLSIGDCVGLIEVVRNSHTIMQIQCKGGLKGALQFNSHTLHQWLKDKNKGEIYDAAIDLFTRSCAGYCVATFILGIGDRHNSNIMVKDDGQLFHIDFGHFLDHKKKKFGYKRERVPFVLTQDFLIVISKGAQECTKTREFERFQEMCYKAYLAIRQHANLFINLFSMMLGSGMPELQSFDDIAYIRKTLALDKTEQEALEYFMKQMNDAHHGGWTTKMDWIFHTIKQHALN
UniProt O15197, sequence (whole entry, looked up): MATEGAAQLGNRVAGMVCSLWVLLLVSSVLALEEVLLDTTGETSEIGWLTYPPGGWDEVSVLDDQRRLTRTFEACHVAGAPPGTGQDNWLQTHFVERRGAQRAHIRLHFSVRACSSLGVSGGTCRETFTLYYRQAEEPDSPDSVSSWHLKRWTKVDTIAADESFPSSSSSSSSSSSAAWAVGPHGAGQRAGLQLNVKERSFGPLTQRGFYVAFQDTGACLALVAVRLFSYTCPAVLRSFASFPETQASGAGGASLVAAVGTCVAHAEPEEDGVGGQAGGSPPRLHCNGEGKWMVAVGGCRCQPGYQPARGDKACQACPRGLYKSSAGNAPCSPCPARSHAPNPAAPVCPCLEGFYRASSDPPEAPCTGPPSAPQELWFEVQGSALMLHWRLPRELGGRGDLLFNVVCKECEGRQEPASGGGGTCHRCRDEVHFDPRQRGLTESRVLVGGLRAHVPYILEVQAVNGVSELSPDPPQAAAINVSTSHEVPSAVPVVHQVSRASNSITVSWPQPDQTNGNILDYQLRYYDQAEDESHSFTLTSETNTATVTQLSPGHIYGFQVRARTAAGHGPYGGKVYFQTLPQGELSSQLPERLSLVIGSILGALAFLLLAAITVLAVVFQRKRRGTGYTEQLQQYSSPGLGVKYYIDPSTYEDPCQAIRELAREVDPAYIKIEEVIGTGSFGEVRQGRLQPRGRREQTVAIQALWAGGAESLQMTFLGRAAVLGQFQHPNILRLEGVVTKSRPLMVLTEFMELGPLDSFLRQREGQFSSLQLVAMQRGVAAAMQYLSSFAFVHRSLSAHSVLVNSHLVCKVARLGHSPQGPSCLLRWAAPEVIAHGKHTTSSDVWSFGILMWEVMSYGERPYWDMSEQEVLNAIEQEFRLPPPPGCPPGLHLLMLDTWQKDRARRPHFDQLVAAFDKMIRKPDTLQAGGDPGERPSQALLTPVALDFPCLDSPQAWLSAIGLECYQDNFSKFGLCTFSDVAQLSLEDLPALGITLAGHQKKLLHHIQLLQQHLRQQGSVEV
UniProt P06493, sequence (whole entry, looked up): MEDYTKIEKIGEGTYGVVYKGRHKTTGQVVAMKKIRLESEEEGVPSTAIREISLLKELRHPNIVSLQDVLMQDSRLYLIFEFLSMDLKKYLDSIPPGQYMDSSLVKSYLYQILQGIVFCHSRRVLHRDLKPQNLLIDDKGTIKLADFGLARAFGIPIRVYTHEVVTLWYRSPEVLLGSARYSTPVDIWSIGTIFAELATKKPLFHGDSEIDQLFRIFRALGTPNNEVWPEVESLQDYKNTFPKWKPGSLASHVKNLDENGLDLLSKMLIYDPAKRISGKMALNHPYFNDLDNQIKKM

Block 1
Structure (SMILES): CC(C)CN(C)c1nc(N)c(C(=O)N=C(N)N)nc1Cl
Action: agonist
Tested at: 10 µM
Relative to: untreated
target	assay	fold over basal
Nociceptin receptor (OPRL1, Homo sapiens, UniProt P41146)	PRESTO-Tango arrestin recruitment	2.87
Mas-related G-protein coupled receptor member X3 (Homo sapiens, UniProt Q96LB0)	β-arrestin recruitment, PRESTO-Tango	1.86
PTGER4 (Homo sapiens, UniProt P35408)	β-arrestin recruitment, PRESTO-Tango	0.79
ADGRG2 (Homo sapiens, UniProt Q8IZP9)	β-arrestin recruitment, PRESTO-Tango	0.94
Metabotropic glycine receptor (GPR158, Homo sapiens, UniProt Q5T848)	β-arrestin recruitment, PRESTO-Tango	0.67
Adhesion G protein-coupled receptor D2 (ADGRD2, Homo sapiens, UniProt Q7Z7M1)	β-arrestin recruitment, PRESTO-Tango	0.64
GRM5 (Homo sapiens, UniProt P41594)	β-arrestin recruitment, PRESTO-Tango	0.73 fold
GPR52 (Homo sapiens, UniProt Q9Y2T5)	β-arrestin recruitment, PRESTO-Tango	0.98
NPBWR2 (Homo sapiens, UniProt P48146)	β-arrestin recruitment, PRESTO-Tango	0.91

Block 2
SMILES: C=CCc1ccc(O)c(-c2cc(CC=C)ccc2O)c1
Read-out: chloride current
ANO1 del476-501/E649A/R541A: Anoctamin-1 (ANO1, Homo sapiens, UniProt Q5XXA6, del476-501/E649A/R541A)
UniProt Q5XXA6, sequence (whole entry, unmodified, looked up): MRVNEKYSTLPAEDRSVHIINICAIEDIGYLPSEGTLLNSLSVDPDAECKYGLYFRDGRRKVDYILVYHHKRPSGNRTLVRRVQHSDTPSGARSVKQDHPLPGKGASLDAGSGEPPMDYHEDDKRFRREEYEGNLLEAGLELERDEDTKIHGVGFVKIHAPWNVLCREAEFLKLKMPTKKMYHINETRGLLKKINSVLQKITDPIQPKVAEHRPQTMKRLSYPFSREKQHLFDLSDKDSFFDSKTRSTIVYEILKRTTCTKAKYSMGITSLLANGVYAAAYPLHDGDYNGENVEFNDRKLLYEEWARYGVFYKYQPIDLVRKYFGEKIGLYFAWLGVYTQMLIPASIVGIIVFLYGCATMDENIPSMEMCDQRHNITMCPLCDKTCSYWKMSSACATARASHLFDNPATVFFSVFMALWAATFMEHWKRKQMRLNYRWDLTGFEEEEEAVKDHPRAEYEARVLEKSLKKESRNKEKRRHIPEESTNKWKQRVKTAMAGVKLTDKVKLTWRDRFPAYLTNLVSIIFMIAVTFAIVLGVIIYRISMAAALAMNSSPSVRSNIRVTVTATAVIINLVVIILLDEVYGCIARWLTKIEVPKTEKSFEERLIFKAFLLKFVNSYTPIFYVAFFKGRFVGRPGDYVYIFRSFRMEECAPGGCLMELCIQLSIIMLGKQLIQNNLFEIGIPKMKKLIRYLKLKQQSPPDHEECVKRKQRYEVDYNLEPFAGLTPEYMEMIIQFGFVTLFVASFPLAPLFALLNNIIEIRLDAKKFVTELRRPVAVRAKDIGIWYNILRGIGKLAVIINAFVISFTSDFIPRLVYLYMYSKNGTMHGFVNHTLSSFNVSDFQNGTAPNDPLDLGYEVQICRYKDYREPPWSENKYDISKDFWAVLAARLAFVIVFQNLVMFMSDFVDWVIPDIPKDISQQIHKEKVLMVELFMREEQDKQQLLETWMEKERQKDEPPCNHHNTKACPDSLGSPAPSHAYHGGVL
target	assay	setting	how to read	normalized current
ANO1 del476-501/E649A/R541A	inside-out patch clamp	30 µM, membrane voltage -20 mV	–	-0.0869
Anoctamin-1 (ANO1, Homo sapiens, UniProt Q5XXA6)	inside-out patch clamp	30 µM, membrane voltage -60 mV	–	-0.683
TMEM16A (human) K603A/E623A	inside-out patch clamp	30 µM, membrane voltage 60 mV	–	0.321
Anoctamin-1 (ANO1, Homo sapiens, UniProt Q5XXA6, del476-501/M544A)	inhibitor, whole-cell voltage clamp	10 µM, M518A mutant	relative to: untreated	0.984
TMEM16A (human) K603A/E623A	inside-out patch clamp	30 µM, membrane voltage -60 mV	–	-0.196
TMEM16A (human) K603A/E623A	inside-out patch clamp	30 µM, membrane voltage 40 mV	–	0.185
ANO1 del476-501/E649A/R541A	inside-out patch clamp	30 µM, membrane voltage -40 mV	–	-0.169
TMEM16A (human) K603A/E623A	inside-out patch clamp	30 µM, membrane voltage 120 mV	–	1
human TMEM16A K603A/E623A	inhibitor, inside-out patch clamp	30 µM, at -100 mV	–	-0.313
Anoctamin-1 (ANO1, Homo sapiens, UniProt Q5XXA6, del476-501/E659A)	inside-out patch clamp	30 µM, membrane voltage 60 mV	–	0.444
Anoctamin-1 (ANO1, Homo sapiens, UniProt Q5XXA6, del476-501/R541A)	inhibitor, whole-cell voltage clamp	3 µM, R515A mutant	–	0.992

Block 3
SMILES: NC(=O)c1cccc(-c2cc(Nc3ccc(OC(F)(F)F)cc3)ncn2)c1
Read-out: enzyme activity
Action: inhibitor
Tested at: 0.5 µM
Relative to: control
target	remaining activity [%]
HIPK4 (Homo sapiens, UniProt Q8NE63)	101
SRMS (Homo sapiens, UniProt Q9H3Y6)	93.4
RPS6KA5 (Homo sapiens, UniProt O75582)	104
Cyclin-dependent kinase 1, with cyclin B (CDK1, Homo sapiens, UniProt P06493)	92.5
STK16 (Homo sapiens, UniProt O75716)	81.8
EPHA4 (Homo sapiens, UniProt P54764)	94.4
RPS6KA6 (Homo sapiens, UniProt Q9UK32)	94.2
PDPK1 (Homo sapiens, UniProt O15530)	98.3
Cyclin-dependent kinase 4, with cyclin D3 (CDK4, Homo sapiens, UniProt P11802)	98.4
PHKG1 (Homo sapiens, UniProt Q16816)	99.2
EPHB1 (Homo sapiens, UniProt P54762)	105
HIPK2 (Homo sapiens, UniProt Q9H2X6)	102
DYRK3 (Homo sapiens, UniProt O43781)	99.9
BLK (Homo sapiens, UniProt P51451)	103
STK17A (Homo sapiens, UniProt Q9UEE5)	98.7
WNK3 (Homo sapiens, UniProt Q9BYP7)	105
AXL (Homo sapiens, UniProt P30530)	101
EPHB4 (Homo sapiens, UniProt P54760)	90.6
CAMK2B (Homo sapiens, UniProt Q13554)	100
MAP4K4 (Homo sapiens, UniProt O95819)	104
MAPKAPK3 (Homo sapiens, UniProt Q16644)	98

Block 4
Compound: O=C(N1CCS(=O)(=O)CC1)N1C[C@H](c2ccc(OC(F)(F)F)cc2)C[C@H](c2nc(C3CC3)no2)C1
Technique: competition with immobilised ligand
Tested at: 1 µM
target	assay	remaining binding [%]
PIK3CA (Homo sapiens, UniProt P42336, E545K)	cell-free assay	90
NEK3 (Homo sapiens, UniProt P51956)	cell-free assay	100
PTK2 (Homo sapiens, UniProt Q05397)	cell-free assay	93
EPHA1 (Homo sapiens, UniProt P21709)	cell-free assay	100
Ribosomal protein S6 kinase alpha-6, N-terminal kinase domain (RPS6KA6, Homo sapiens, UniProt Q9UK32)	cell-free assay	76
CDKL5 (Homo sapiens, UniProt O76039)	binding	100
FGFR3 (Homo sapiens, UniProt P22607, G697C)	cell-free assay	100
FGFR2 (Homo sapiens, UniProt P21802)	cell-free assay	94
eIF-2-alpha kinase GCN2, C-terminal kinase domain (EIF2AK4, Homo sapiens, UniProt Q9P2K8, S808G)	cell-free assay	100
CAMK4 (Homo sapiens, UniProt Q16566)	cell-free assay	91
EPHB4 (Homo sapiens, UniProt P54760)	cell-free assay	100
ERBB3 (Homo sapiens, UniProt P21860)	cell-free assay	100
EGFR (Homo sapiens, UniProt P00533, G719C)	cell-free assay	97
TEK (Homo sapiens, UniProt Q02763)	cell-free assay	100
EPHB6 (Homo sapiens, UniProt O15197)	cell-free assay	100
EGFR (Homo sapiens, UniProt P00533, A750P/del747-749)	cell-free assay	100
ROS1 (Homo sapiens, UniProt P08922)	cell-free assay	100
PIK3CA (Homo sapiens, UniProt P42336)	cell-free assay	100
NEK2 (Homo sapiens, UniProt P51955)	cell-free assay	100
ALK (Homo sapiens, UniProt Q9UM73, L1196M)	cell-free assay	65
IRAK3 (Homo sapiens, UniProt Q9Y616)	cell-free assay	100
RET (Homo sapiens, UniProt P07949)	cell-free assay	93
PIM2 (Homo sapiens, UniProt Q9P1W9)	cell-free assay	100
PNCK (Homo sapiens, UniProt Q6P2M8)	cell-free assay	100

Repeated from above (block 2):
target	assay	setting	how to read	normalized current
Anoctamin-1 (ANO1, Homo sapiens, UniProt Q5XXA6, del476-501/M544A)	inhibitor, whole-cell voltage clamp	10 µM, M518A mutant	relative to: untreated	0.984
TMEM16A (human) K603A/E623A	inside-out patch clamp	30 µM, membrane voltage -60 mV	–	-0.196
human TMEM16A K603A/E623A	inhibitor, inside-out patch clamp	30 µM, at -100 mV	–	-0.313
TMEM16A (human) K603A/E623A	inside-out patch clamp	30 µM, membrane voltage 40 mV	–	0.185
ANO1 del476-501/E649A/R541A	inside-out patch clamp	30 µM, membrane voltage -20 mV	–	-0.0869
